# Results gathered from unrelated publications.
# Numbered parts are unrelated; each lists some results of a single study. Several values in a cell are separate wells, animals, samples, runs or records.
# Sequence of UniProt Q16539 (whole entry, looked up): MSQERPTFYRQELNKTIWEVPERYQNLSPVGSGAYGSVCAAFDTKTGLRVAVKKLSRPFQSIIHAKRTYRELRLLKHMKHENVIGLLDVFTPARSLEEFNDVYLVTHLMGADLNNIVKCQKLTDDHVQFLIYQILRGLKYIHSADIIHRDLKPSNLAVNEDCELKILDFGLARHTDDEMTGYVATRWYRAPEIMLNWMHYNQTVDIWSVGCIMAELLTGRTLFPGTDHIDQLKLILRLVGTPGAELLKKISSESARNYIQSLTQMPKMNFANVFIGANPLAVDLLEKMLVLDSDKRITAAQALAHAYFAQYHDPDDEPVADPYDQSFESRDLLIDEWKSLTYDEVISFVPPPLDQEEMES
# Sequence of UniProt Q13164 (whole entry, looked up): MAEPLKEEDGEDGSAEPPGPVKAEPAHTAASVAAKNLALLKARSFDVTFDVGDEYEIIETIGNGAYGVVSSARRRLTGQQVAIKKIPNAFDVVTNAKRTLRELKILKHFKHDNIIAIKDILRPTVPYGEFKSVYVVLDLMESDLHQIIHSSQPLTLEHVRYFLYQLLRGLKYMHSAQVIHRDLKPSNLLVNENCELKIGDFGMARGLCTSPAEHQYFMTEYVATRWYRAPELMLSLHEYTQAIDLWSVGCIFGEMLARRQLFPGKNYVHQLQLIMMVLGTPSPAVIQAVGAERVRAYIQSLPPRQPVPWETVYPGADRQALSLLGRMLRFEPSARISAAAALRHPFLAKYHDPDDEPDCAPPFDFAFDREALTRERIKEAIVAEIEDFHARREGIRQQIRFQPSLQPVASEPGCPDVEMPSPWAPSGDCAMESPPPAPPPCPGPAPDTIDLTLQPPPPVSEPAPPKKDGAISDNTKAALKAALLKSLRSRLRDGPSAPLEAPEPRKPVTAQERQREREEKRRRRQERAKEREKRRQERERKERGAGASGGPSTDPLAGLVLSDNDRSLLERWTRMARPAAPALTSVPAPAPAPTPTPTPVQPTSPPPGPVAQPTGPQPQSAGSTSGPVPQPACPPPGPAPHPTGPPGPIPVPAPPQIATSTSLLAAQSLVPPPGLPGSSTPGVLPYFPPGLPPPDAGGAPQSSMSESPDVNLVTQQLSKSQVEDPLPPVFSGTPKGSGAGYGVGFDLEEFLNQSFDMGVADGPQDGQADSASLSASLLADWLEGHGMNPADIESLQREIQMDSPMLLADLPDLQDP
# Sequence of UniProt P37173 (whole entry, looked up): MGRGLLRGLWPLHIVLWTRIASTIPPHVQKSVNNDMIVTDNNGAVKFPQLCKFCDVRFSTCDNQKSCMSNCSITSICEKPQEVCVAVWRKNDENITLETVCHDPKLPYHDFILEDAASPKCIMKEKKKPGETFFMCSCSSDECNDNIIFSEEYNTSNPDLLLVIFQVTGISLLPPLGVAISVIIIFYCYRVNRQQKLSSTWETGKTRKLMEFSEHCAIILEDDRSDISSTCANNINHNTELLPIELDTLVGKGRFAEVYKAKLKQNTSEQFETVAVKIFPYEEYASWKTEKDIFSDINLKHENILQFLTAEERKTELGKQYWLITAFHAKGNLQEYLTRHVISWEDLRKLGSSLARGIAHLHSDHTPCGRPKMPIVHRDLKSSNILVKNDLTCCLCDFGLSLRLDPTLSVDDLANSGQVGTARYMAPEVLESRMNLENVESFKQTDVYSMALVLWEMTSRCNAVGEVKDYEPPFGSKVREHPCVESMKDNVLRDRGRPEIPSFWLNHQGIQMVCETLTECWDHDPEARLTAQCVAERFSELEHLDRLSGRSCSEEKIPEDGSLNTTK
# Sequence of UniProt Q15418 (whole entry, looked up): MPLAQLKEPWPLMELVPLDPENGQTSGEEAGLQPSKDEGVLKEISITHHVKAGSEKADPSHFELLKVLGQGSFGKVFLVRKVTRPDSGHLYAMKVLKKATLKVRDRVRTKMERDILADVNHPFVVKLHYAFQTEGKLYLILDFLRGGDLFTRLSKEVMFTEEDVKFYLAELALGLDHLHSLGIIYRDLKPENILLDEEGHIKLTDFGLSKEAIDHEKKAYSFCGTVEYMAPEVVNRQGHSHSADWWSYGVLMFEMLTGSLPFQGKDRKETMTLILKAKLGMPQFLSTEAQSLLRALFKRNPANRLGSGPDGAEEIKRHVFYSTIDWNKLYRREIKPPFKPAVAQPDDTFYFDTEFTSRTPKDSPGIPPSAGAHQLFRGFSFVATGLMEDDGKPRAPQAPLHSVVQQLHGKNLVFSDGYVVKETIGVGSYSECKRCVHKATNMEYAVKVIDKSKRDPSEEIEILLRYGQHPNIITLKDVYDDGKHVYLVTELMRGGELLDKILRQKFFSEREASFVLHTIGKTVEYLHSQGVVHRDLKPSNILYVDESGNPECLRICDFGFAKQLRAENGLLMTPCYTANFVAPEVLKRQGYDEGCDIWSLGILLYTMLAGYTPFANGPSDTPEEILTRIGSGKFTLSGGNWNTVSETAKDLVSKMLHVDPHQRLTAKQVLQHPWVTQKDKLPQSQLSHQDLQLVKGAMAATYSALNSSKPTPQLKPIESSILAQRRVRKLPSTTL
# Sequence of UniProt O00506 (whole entry, looked up): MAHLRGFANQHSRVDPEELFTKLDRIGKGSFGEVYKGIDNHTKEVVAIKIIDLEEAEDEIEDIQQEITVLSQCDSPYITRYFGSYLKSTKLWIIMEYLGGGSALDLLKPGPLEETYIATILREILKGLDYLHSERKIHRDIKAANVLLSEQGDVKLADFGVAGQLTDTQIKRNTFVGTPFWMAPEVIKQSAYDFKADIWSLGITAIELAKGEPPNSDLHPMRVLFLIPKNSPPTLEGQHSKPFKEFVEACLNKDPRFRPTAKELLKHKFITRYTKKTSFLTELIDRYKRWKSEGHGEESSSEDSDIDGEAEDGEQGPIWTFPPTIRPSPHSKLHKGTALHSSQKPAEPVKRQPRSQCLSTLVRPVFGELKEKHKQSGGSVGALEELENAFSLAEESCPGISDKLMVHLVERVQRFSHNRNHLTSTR

# Sample 1
# Cell line: A-375
# Concentration: 100 µM
# Time: 18 h
Compound,viability [%]
CN1CCOC(c2ccccc2)c2ccccc2C1 (stereo not shown),91.8
CC(CN(C)C)CN1c2ccccc2CCc2ccccc21 (stereo not shown),103
Cn1cnc([N+](=O)[O-])c1Sc1ncnc2nc[nH]c12,77.7
CC(C)(C)NC(=O)[C@H]1CC[C@H]2[C@@H]3CC[C@H]4NC(=O)C=C[C@]4(C)[C@H]3CC[C@]12C,79.1
C[n+]1cc2c3c(ccc2c2ccc4cc5c(cc4c21)OCO5)OCO3,9.47
Cc1cccc(Nc2ccccc2C(=O)O)c1C,92.1
CN1[C@@H]2CC[C@H]1C[C@@H](OC(=O)c1c[nH]c3ccccc13)C2,85.3
COc1cc(O)c(C(=O)Nc2nc(C(=O)NCCN(C(C)C)C(C)C)cs2)cc1OC,103

# Sample 2
# Target: SRSF protein kinase 2 (SRPK2, Homo sapiens, UniProt P78362)
# Sequence of UniProt P78362 (whole entry, looked up): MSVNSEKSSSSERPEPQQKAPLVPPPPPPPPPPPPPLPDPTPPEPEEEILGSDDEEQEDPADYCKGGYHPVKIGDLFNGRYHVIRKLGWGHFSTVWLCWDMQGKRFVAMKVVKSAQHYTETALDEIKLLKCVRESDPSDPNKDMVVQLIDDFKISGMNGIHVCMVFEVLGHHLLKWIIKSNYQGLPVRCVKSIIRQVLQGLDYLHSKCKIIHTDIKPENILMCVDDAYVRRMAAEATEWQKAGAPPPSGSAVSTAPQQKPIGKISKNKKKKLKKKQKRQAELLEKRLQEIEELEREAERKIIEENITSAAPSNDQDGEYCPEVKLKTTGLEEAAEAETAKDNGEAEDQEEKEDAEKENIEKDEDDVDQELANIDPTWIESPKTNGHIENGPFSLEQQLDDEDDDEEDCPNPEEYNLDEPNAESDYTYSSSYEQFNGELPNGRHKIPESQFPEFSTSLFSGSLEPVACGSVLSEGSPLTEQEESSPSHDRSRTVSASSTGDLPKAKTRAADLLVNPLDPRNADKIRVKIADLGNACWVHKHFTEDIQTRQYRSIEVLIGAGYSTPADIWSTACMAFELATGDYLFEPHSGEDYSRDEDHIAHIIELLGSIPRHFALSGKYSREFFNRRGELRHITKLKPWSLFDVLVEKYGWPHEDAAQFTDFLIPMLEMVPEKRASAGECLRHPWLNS
# Read-out: enzyme activity
# Mode: inhibitor
# Concentration: 0.5 µM
# Relative to: control
Structure (SMILES),remaining activity [%]
C[C@@H](N)[C@H]1CC[C@H](C(=O)Nc2ccncc2)CC1,87.8
c1cc(-c2cnn3cc(-c4ccc(OCCN5CCCCC5)cc4)cnc23)ccn1,103
O=C1c2ccccc2-c2nc3nnnn3nc21,95.8
CCCCc1c(-c2ccc(O)cc2)[nH]c2nccnc12,110
COc1cc2c(Nc3ccc(Br)cc3F)ncnc2cc1OCC1CCN(C)CC1,106
NC(=O)c1ccc(-c2nc(-c3ccc4c(c3)OCCO4)c(-c3ccccn3)[nH]2)cc1,95.3
Clc1ccc(Nc2nnc(Cc3ccncc3)c3ccccc23)cc1,96.5
CC(C)(C)c1nc2c3cc[nH]c(=O)c3c3cc(F)ccc3c2[nH]1,70.5
N#C/C(=C(/N)SC1C=CC=CC1)c1cccc(C(O)c2ccncc2)c1 (stereo not shown),104
O=c1c(-c2ccc(F)cc2)c(-c2ccncc2)[nH]n1-c1ccc(Cl)cc1,94.4
Nc1nc(Nc2ccc(S(N)(=O)=O)cc2)nn1C(=S)Nc1c(F)cccc1F,17.1
COc1cc2c(N3CCN(C(=O)Nc4ccc(OC(C)C)cc4)CC3)ncnc2cc1OCCCN1CCCCC1,103

# Sample 3
# Cell line: mouse MPNST tumor cells
# Technique: high-content immunofluorescence imaging
# Measured: nuclear SOX9
# Concentration: 10 µM
# Time: 12 h
# Setting: mean of 2 replicates
# Relative to: DMSO control
# Direction: higher = more nuclear SOX9
Compound,nuclear SOX9 intensity
COC(=O)C(NC(=O)c1cc(-c2ccccc2)nc2ccccc12)c1ccccc1 (stereo not shown),99.5 % of DMSO
c1ccc(C(NCc2cccnc2)(c2ccccc2)c2ccccc2)cc1,106 % of DMSO
COc1ccc(CN2CCN(C(c3ccc(F)cc3)c3ccc(F)cc3)CC2)c(OC)c1OC,207 % of DMSO
COc1ccccc1C(=O)Nc1cc2c(cc1N1CCNC[C@H]1C)n(C)c(=O)n2C,129 % of DMSO and 151 % of DMSO
N=C(NC(=O)c1nc(Cl)c(N)nc1N)Nc1ccccc1,118 % of DMSO
O=C(O)c1c[nH]c2cc(Cl)c(-c3ccc(C4(O)CCC4)cc3)cc12,107 % of DMSO
Cc1ccc(C(=O)C(C)CN2CCCCC2)cc1 (stereo not shown),91 % of DMSO
O=c1onc2n1-c1cc(Br)ccc1OC2,102 % of DMSO
C[S+]([O-])c1ccc(-c2nc(-c3ccc(F)cc3)c(-c3ccncc3)[nH]2)cc1 (stereo not shown),120 % of DMSO
CN(Cc1cc(Br)cc(Br)c1N)C1CCCCC1,120 % of DMSO

# Sample 4
# Compound: CO[C@H]1CC[C@H](CNc2ccc(S(=O)(=O)NC(=O)c3ccc(N4CCN(CC5=C(c6ccc(Cl)cc6)CC(C)(C)CC5)CC4)cc3Oc3cnc4[nH]ccc4c3)cc2[N+](=O)[O-])CC1
# Read-out: cell-free assay
# Technique: competition with immobilised ligand
# Concentration: 1 µM
target,remaining binding
"EGFR (Homo sapiens, UniProt P00533)",62%
"PHKG2 (Homo sapiens, UniProt P15735)",74%
"STK25 (Homo sapiens, UniProt O00506)",83%
"IRAK4 (Homo sapiens, UniProt Q9NWZ3)",83%
"MAPK7 (Homo sapiens, UniProt Q13164)",88%
"Tyrosine-protein kinase ABL1, phosphorylated (ABL1, Homo sapiens, UniProt P00519, T315I)",80%
"Ribosomal protein S6 kinase alpha-1, N-terminal kinase domain (RPS6KA1, Homo sapiens, UniProt Q15418)",69%
"MAPK14 (Homo sapiens, UniProt Q16539)",83%
"CDK16 (Homo sapiens, UniProt Q00536)",61%
"TGFBR2 (Homo sapiens, UniProt P37173)",74%

# For quick reference, copied from above (sample 1):
Compound,viability [%]
Cn1cnc([N+](=O)[O-])c1Sc1ncnc2nc[nH]c12,77.7
CC(C)(C)NC(=O)[C@H]1CC[C@H]2[C@@H]3CC[C@H]4NC(=O)C=C[C@]4(C)[C@H]3CC[C@]12C,79.1
C[n+]1cc2c3c(ccc2c2ccc4cc5c(cc4c21)OCO5)OCO3,9.47
Cc1cccc(Nc2ccccc2C(=O)O)c1C,92.1
CN1[C@@H]2CC[C@H]1C[C@@H](OC(=O)c1c[nH]c3ccccc13)C2,85.3
COc1cc(O)c(C(=O)Nc2nc(C(=O)NCCN(C(C)C)C(C)C)cs2)cc1OC,103
